Published values collected from several papers.
Values joined by “and” are separate records of one study, mostly repeats; a detail may differ. ± gives the spread as reported.
B1: enzyme F1161A (Homo sapiens, UniProt Q9NTI2); chain MLNGAGLDKALKMSLPRRSRIRSSVGPVRSSLGYKKAEDEMSRATSVGDQLEAPARTIYLNQPHLNKFRDNQISTAKYSVLTFLPRFLYEQIRRAANAFFLFIALLQQIPDVSPTGRYTTLVPLIIILTIAGIKEIVEDFKRHKADNAVNKKKTIVLRNGMWHTIMWKEVAVGDIVKVVNGQYLPADVVLLSSSEPQAMCYVETANLDGETNLKIRQGLSHTADMQTREVLMKLSGTIECEGPNRHLYDFTGNLNLDGKSLVALGPDQILLRGTQLRNTQWVFGIVVYTGHDTKLMQNSTKAPLKRSNVEKVTNVQILVLFGILLVMALVSSAGALYWNRSHGEKNWYIKKMDTTSDNFGYNLLTFIILYNNLIPISLLVTLEVVKYTQALFINWDTDMYYIGNDTPAMARTSNLNEELGQVKYLFSDKTGTLTCNIMNFKKCSIAGVTYGHFPELAREPSSDDFCRMPPPCSDSCDFDDPRLLKNIEDRHPTAPCIQEFLTLLAVCHTVVPEKDGDNIIYQASSPDEAALVKGAKKLGFVFTARTPFSVIIEAMGQEQTFGILNVLEFSSDRKRMSVIVRTPSGRLRLYCKGADNVIFERLSKDSKYMEETLCHLEYFATEGLRTLCVAYADLSENEYEEWLKVYQEASTILKDRAQRLEECYEIIEKNLLLLGATAIEDRLQAGVPETIATLLKAEIKIWVLTGDKQETAINIGYSCRLVSQNMALILLKEDSLDATRAAITQHCTDLGNLLGKENDVALIIDGHTLKYALSFEVRRSFLDLALSCKAVICCRVSPLQKSEIVDVVKKRVKAITLAIGDGANDVGMIQTAHVGVGISGNEGMQATNNSDYAIAQFSYLEKLLLVHGAWSYNRVTKCILYCFYKNVVLYIIELWFAFVNGFSGQILFERWCIGLYNVIFTALPPFTLGIFERSCTQESMLRFPQLYKITQNGEGFNTKVFWGHCINALVHSLILFWFPMKALEHDTVLTSGHATDYLFVGNIVYTYVVVTVCLKAGLETTAWTKFSHLAVWGSMLTWLVFFGIYSTIWPTIPIAPDMRGQATMVLSSAHFWLGLFLVPTACLIEDVAWRAAKHTCKKTLLEEVQELETKSRVLGKAVLRDSNGKRLNERDRLIKRLGRKTPPTLFRGSSLQQGVPHGYAASQEEHGAVSQEEVIRAYDTTKKKSRKK
B2: enzyme (Trypanosoma brucei, UniProt Q9GV41); chain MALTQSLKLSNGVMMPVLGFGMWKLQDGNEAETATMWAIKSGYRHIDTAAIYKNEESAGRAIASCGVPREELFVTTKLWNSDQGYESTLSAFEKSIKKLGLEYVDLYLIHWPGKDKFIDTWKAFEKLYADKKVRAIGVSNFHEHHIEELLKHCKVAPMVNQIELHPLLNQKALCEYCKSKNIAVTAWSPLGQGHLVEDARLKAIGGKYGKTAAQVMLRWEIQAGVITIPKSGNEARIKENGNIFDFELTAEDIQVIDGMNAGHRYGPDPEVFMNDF
B3: enzyme (Homo sapiens, UniProt Q9NTI2); chain MLNGAGLDKALKMSLPRRSRIRSSVGPVRSSLGYKKAEDEMSRATSVGDQLEAPARTIYLNQPHLNKFRDNQISTAKYSVLTFLPRFLYEQIRRAANAFFLFIALLQQIPDVSPTGRYTTLVPLIIILTIAGIKEIVEDFKRHKADNAVNKKKTIVLRNGMWHTIMWKEVAVGDIVKVVNGQYLPADVVLLSSSEPQAMCYVETANLDGETNLKIRQGLSHTADMQTREVLMKLSGTIECEGPNRHLYDFTGNLNLDGKSLVALGPDQILLRGTQLRNTQWVFGIVVYTGHDTKLMQNSTKAPLKRSNVEKVTNVQILVLFGILLVMALVSSAGALYWNRSHGEKNWYIKKMDTTSDNFGYNLLTFIILYNNLIPISLLVTLEVVKYTQALFINWDTDMYYIGNDTPAMARTSNLNEELGQVKYLFSDKTGTLTCNIMNFKKCSIAGVTYGHFPELAREPSSDDFCRMPPPCSDSCDFDDPRLLKNIEDRHPTAPCIQEFLTLLAVCHTVVPEKDGDNIIYQASSPDEAALVKGAKKLGFVFTARTPFSVIIEAMGQEQTFGILNVLEFSSDRKRMSVIVRTPSGRLRLYCKGADNVIFERLSKDSKYMEETLCHLEYFATEGLRTLCVAYADLSENEYEEWLKVYQEASTILKDRAQRLEECYEIIEKNLLLLGATAIEDRLQAGVPETIATLLKAEIKIWVLTGDKQETAINIGYSCRLVSQNMALILLKEDSLDATRAAITQHCTDLGNLLGKENDVALIIDGHTLKYALSFEVRRSFLDLALSCKAVICCRVSPLQKSEIVDVVKKRVKAITLAIGDGANDVGMIQTAHVGVGISGNEGMQATNNSDYAIAQFSYLEKLLLVHGAWSYNRVTKCILYCFYKNVVLYIIELWFAFVNGFSGQILFERWCIGLYNVIFTALPPFTLGIFERSCTQESMLRFPQLYKITQNGEGFNTKVFWGHCINALVHSLILFWFPMKALEHDTVLTSGHATDYLFVGNIVYTYVVVTVCLKAGLETTAWTKFSHLAVWGSMLTWLVFFGIYSTIWPTIPIAPDMRGQATMVLSSAHFWLGLFLVPTACLIEDVAWRAAKHTCKKTLLEEVQELETKSRVLGKAVLRDSNGKRLNERDRLIKRLGRKTPPTLFRGSSLQQGVPHGYAFSQEEHGAVSQEEVIRAYDTTKKKSRKK
B4: enzyme (Enterococcus faecalis, UniProt Q836M4); chain MEIHFEKVTSDNRKAVENLQVFAEQQAFIESMAENLKESDQFPEWESAGIYDGNQLIGYAMYGRWQDGRVWLDRFLIDQRFQGQGYGKAACRLLMLKLIEKYQTNKLYLSVYDTNSSAIRLYQQLGFVFNGELDTNGERVMEWTHQNK

Molecule | target or system | test | system | conditions | scale | endpoint | value
enzyme (Nicotiana tabacum, UniProt A0A1S3XCJ5) | Nc1ncnc2c1ncn2[C@@H]1O[C@H](COP(=O)(O)OP(=O)(O)OP(=O)(O)O)[C@@H](O)[C@H]1O | steady-state kinetics | – | pH 7.8, 30 °C | – | Vmax | 79 µmol/min/mg
insulin human | – | item: SOD2 mRNA | uninfected mouse, brain | i.p., dose not given | baseline: PBS | fold change | 1.07
HVLVMSATRR | – | – | peptide, C57BL/6J mice, male, blood | subcutaneous osmotic pump, 3 mg/kg/day peptide basis, 8 weeks | – | MCHC | 30.2 g/dL and 30.9 g/dL and 30.8 g/dL and 30.7 g/dL
ALS1 Q169N/V170Q (Oryza sativa) | CC(=O)C(=O)O | steady-state kinetics | – | pH 7.5, 37 °C, added: FAD, MgCl2, TPP | – | Vmax | 0.0131 µmol/min/mg
aspterric acid | – | hypocotyl length | Arabidopsis thaliana Col-0 seeds | 6.25 µg/mL, 7 days, dark | – | inhibition | 69.5%
B1 (enzyme F1161A) | CCCCCCCC/C=C\CCCCCCCC(=O)OC[C@H](COP(=O)(O)OC[C@H](N)C(=O)O)OC(=O)CCCCCCC/C=C\CCCCCCCC | steady-state kinetics | – | pH 7.5, 37 °C, added: ATP 5 mM | – | K0.5 | 32.5 µM
B2 (enzyme) | [H][C@]12C[C@]([H])(OO1)[C@H](C/C=C\CCCC(=O)O)[C@H]2/C=C/[C@@H](O)CCCCC | steady-state kinetics | – | pH 7, 37 °C | – | Vmax | 2 µmol/min/mg
glucagon | – | arteriovenous isotope dilution | human, type 1 diabetes | iv, dose not given, overnight fasted, baseline | – | leg extraction | 27 ± 4.2%
B3 (enzyme) | CCCCCCCC/C=C\CCCCCCCC(=O)OC[C@H](COP(=O)(O)OC[C@H](N)C(=O)O)OC(=O)CCCCCCC/C=C\CCCCCCCC | steady-state kinetics | – | pH 7.5, 37 °C, added: ATP 5 mM | – | K0.5 | 19.4 µM
rCR L137V (Lodderomyces parapsilosis) | CC(=O)c1ccc(Cl)cc1 | steady-state kinetics | – | pH 7, 30 °C, added: NADH 0.5 mM | – | kcat/Km | 9900 M⁻¹ s⁻¹
ALS1 M174L/P171T/R172G (Oryza sativa) | CC(=O)C(=O)O | steady-state kinetics | – | pH 7.5, 37 °C, added: FAD, MgCl2, TPP | – | Vmax | 0.177 µmol/min/mg
B4 (enzyme) | CC(=O)SCCNC(=O)CCNC(=O)[C@H](O)C(C)(C)COP(=O)(O)OP(=O)(O)OC[C@H]1O[C@@H](n2cnc3c(N)ncnc32)[C@H](O)[C@@H]1OP(=O)(O)O | steady-state kinetics | – | pH 8, 37 °C, Hill n 1.36, added: spermine 1 mM | – | K0.5 | 205 µM

Repeated from above:
Molecule | target or system | test | system | conditions | scale | endpoint | value
B1 (enzyme F1161A) | CCCCCCCC/C=C\CCCCCCCC(=O)OC[C@H](COP(=O)(O)OC[C@H](N)C(=O)O)OC(=O)CCCCCCC/C=C\CCCCCCCC | steady-state kinetics | – | pH 7.5, 37 °C, added: ATP 5 mM | – | K0.5 | 32.5 µM
